# Assay results from different studies.
# Compare with care: the assays were run in different laboratories. Values joined by “and” are separate records of one study, mostly repeats; a detail may differ. ± gives the spread as reported.
Structure (SMILES),test,test system,conditions,scale,endpoint,value
O=C(NCCN1CCCC1)c1cc(-c2ccc(CN3CCOCC3)cc2)nc2ccc(F)cc12,,"NMRI mouse Plasmodium berghei-infected, blood","oral, 0.3 mg/kg, 24 h, monotherapy",,concentration at 24 h,8 nM
COc1ncccc1-c1cnn2ccc(N3CCN(C(=O)OC(C)C)CC3)nc12,,"mouse nerve ligation model, plasma","oral, 3 mg/kg, 30 min after last dose, repeat dosing day 5",,drug concentration,910 nM
COc1cc2c(Oc3ccc4[nH]c(C)cc4c3F)ccnc2cc1OCC1(N)CC1,,paediatric recurrent refractory sarcoma,"concentration not given, whole group",,grade 1 or 2 Hematuria,17.6%
N[C@@H]1c2ccccc2OC12CCN(c1cnc3c(N4CCCc5ncccc54)n[nH]c3n1)CC2,,advanced solid tumour patients,"oral, 100 mg once daily",,serious TEAE grade ≥3,14.3%
O=c1ccc2ccc3occc3c2o1,three freeze-thaw cycles,rat plasma,"200 ng/mL, -70 °C freeze",,accuracy,92.2%
CCCCN1CCC(COC(=O)c2ccc(N)c(O[11CH3])c2)CC1,,n-octanol/phosphate buffer,"pH 7.4, room temperature, 0.15 M sodium phosphate",,logD7.4,1.77 ± 0.01
CCCCCOc1ccc(-c2ccc(-c3ccc(C(=O)N[C@H]4C[C@@H](O)[C@@H](OCC[N+](C)(C)C)NC(=O)[C@@H]5[C@@H](O)[C@@H](C)CN5C(=O)[C@H]([C@@H](C)O)NC(=O)[C@H]([C@H](O)[C@@H](O)c5ccc(O)cc5)NC(=O)[C@@H]5C[C@@H](O)CN5C(=O)[C@H]([C@@H](C)O)NC4=O)cc3)cc2)cc1,,"adult patients in ICU, plasma","intravenous, 400 mg loading dose, after first dose, median",,Cmin,1.9 µg/mL
CC(C)C[C@H](NC(=O)[C@H](CCCCN)NC(=O)OCC1c2ccccc2-c2ccccc21)C(=O)N[C@H](C(=O)N[C@@H](Cc1ccccc1)C(=O)N[C@@H](Cc1ccccc1)C(=O)N[C@@H](CCCCN)C(=O)NCC(=O)N[C@@H](Cc1ccccc1)C(=O)N[C@@H](C)C(=O)N[C@@H](Cc1c[nH]c2ccccc12)C(=O)N[C@@H](CC(N)=O)C(=O)N[C@H](C(=O)N[C@H]1CSSC[C@@H](C(=O)N[C@@H](Cc2c[nH]cn2)C(=O)N[C@@H](CCCNC(=N)N)C(=O)N[C@@H](CCCNC(=N)N)C(=O)N[C@@H](C)C(=O)N[C@@H](CC(N)=O)C(N)=O)NC(=O)[C@H](C(C)C)NC(=O)[C@H](CCCNC(=N)N)NC(=O)[C@H](C(C)C)NC(=O)CNC(=O)[C@H](CC(N)=O)NC(=O)[C@H](CCCNC(=N)N)NC(=O)[C@H](Cc2ccc(O)cc2)NC(=O)[C@H](C(C)C)NC1=O)C(C)C)C(C)C,,"ICR mice, blood","intraductal mammary, 5 mg/kg, day 5",,platelet distribution width,15.8 ± 0.25%
CC(C)Nc1ccnc(Nc2cccc(-c3cccnc3)c2)n1,measured: globulin,"mouse, blood","intraperitoneal, 3 mg/kg",,blood chemistry,1.8 g/dL
C=CCNc1c(O)cc2c(O)c1C[C@@H](C)C[C@H](OC)[C@H](O)[C@@H](C)/C=C(\C)[C@H](OC(N)=O)[C@@H](OC)/C=C\C=C(/C)C(=O)N2,,"unresectable or metastatic STS, GIST, other","intravenous, 90 mg/m^2",,patients with infusion site pain,33%
CC(=O)c1c(C)c2cnc(Nc3ccc(C4CCN(CCS(C)(=O)=O)CC4)cn3)nc2n(C2CCCC2)c1=O,,"human, plasma","oral, 50 mg twice daily, day 1, single dose, together with: letrozole",,AUC(0-t),411 ng·h/mL
Oc1ccc(CSCc2ccc(O)cc2)cc1,,ICR mice male,"oral, 6000 mg/kg, day 15, acute toxicity",reference: day 1,body weight gain,7.68 ± 1.2 g
C[C@]1(CO)Cc2ncn(-c3ccc(C#N)c(Cl)c3)c2C(=O)O1,,"human, Chinese",80 mg single dose,,subjects with drug-related acne,0%
COc1ccc(-c2c(-c3ccc(C#N)c(F)c3)nc(N3CCC(N)CC3)n(C)c2=O)cc1F,measured: Anemia,relapsed/refractory marginal zone lymphoma patients,"oral, 60 mg, any grade, dose expansion",,treatment-related adverse event incidence,0%
CCCCOc1nc(N)c2c(n1)N(Cc1cccc(CN3CCCC3)c1)CC(=O)N2,,human,"oral, 2 mg, drug interaction trial",,deaths,0%
CO[C@H]1C[C@@H]2CC[C@@H](C)[C@@](O)(O2)C(=O)C(=O)N2CCCC[C@H]2C(=O)O[C@H]([C@H](C)C[C@@H]2CC[C@@H](OC(=O)NCCOCCOCCOCCOCCOCCOCCOCCOCCC(=O)N3CCc4cc(Cn5nc(-c6ccc7oc(N)nc7c6)c6c(N)ncnc65)ccc4C3)[C@H](OC)C2)C[C@@H](O)[C@H](C)/C=C(\C)[C@@H](O)[C@@H](OC)C(=O)[C@H](C)C[C@H](C)/C=C/C=C/C=C/1C,,patients with advanced solid tumours,"intravenous, dose not given, any grade",,incidence of fatigue TRAE,42%
O=C(c1ccc(F)c(F)c1Nc1ccc(I)cc1F)N1CC(O)([C@@H]2CCCCN2)C1,,patients aged 2 to 6 years,"oral, dose not given",,treatment-related serious AE,0%
Nc1ncnc2c1ncn2[C@@H]1O[C@@H]2COP(=O)([S-])O[C@@H]3[C@H](O)[C@@H](COP([O-])(=S)O[C@H]2[C@H]1O)O[C@H]3n1cnc2c(N)ncnc21.[Na+].[Na+] (stereo partly drawn),,"non-tumor-bearing mice, blood","intravenous, 1 mg/kg, toxicity study",,haemoglobin,145 ± 9.39 g/L
NC(=O)[C@H]1CCN(c2ncnc(N)c2F)C[C@@H]1N1CCC[C@@H](Nc2cc(Cl)cc(C(F)(F)F)c2)C1=O,,B-cell malignancy patients,"oral, 41 mg twice daily, dose",,grade ≥3 lymphopenia,10%
CCc1ccc(CC/C=C/c2ccc3c(c2)C(=O)CC3)cc1,,"Sprague-Dawley rat, female, blood","oral, 450 mg/kg/day, 14 days",,hematocrit,46.3%
O=C(O)CCCOc1ccc(F)cc1-c1cc(-c2ccccc2C(F)(F)F)n(-c2ccccc2)n1,measured: α2-glb,"Crl:CD(SD) rats, male, serum","iv, 25 µg/kg, 14 days",,serum protein fraction,9.3 ± 1%
CC[C@H](C)[C@H](NC(=O)[C@H](Cc1ccccc1)NC(=O)[C@H](CCC(=O)O)NC(=O)[C@H](CCCNC(=N)N)NC(=O)[C@H](C)NC(=O)[C@H](C)NC(=O)[C@H](CCC(N)=O)NC(=O)[C@H](CCC(=O)O)NC(=O)[C@H](CCC(=O)O)NC(=O)[C@H](CC(C)C)NC(=O)[C@H](Cc1ccc(O)cc1)NC(=O)[C@H](CO)NC(=O)[C@H](CO)NC(=O)[C@@H](NC(=O)[C@H](CC(=O)O)NC(=O)[C@H](CO)NC(=O)[C@@H](NC(=O)[C@H](Cc1ccccc1)NC(=O)[C@@H](NC(=O)CNC(=O)[C@H](CCC(=O)O)NC(=O)[C@H](C)NC(=O)CCc1cnc[nH]1)[C@@H](C)O)[C@@H](C)O)C(C)C)C(=O)N[C@@H](C)C(=O)N[C@@H](Cc1c[nH]c2ccccc12)C(=O)N[C@@H](CC(C)C)C(=O)N[C@H](C(=O)N[C@@H](CCCNC(=N)N)C(=O)NCC(=O)N[C@@H](CCCNC(=N)N)C(=O)N[C@@H](CCCCNC(=O)COCCOCCNC(=O)COCCOCCNC(=O)CC[C@H](NC(=O)CCCCCCCCCCCCCCCCC(=O)O)C(=O)O)C(=O)NCC(=O)NCC(=O)N[C@@H](CO)C(=O)N[C@@H](CCCCNC(=O)[C@H](CCCCNc1c(NCCCCCN(O)C(=O)CCC(=O)NCCCCCN(O)C(=O)CCC(=O)NCCCCCN(O)C(C)=O)c(=O)c1=O)Nc1c(NCCCCCN(O)C(=O)CCC(=O)NCCCCCN(O)C(=O)CCC(=O)NCCCCCN(O)C(C)=O)c(=O)c1=O)C(=O)O)C(C)C [zirconium-89 labelled],ex vivo gamma counting,"Sprague-Dawley rat, male, bone marrow","intravenous, 1 nmol, 24 h",,tissue uptake,0.739 %ID/g and 0.638 %ID/g and 0.628 %ID/g and 0.757 %ID/g and 0.77 %ID/g
CN1CC[C@@H](c2c(O)cc(O)c3c(=O)cc(-c4ccc(C(F)(F)F)cc4Cl)oc23)[C@@H]1CO,measured: Nausea,AML,"oral, 150 mg, intermittent dosing",,patients with adverse event,25%
CC(C)CC(=O)OC[C@H]1O[C@@](C#N)(c2ccc3c(N)ncnn23)[C@H](O)[C@@H]1O,,human plasma,90 µM,,fraction bound,0.816
CC(C)[C@H](C(=O)O[C@H](C#N)c1cccc(Oc2ccccc2)c1)c1ccc(Cl)cc1,measured: CYP2B6,"human, age 5 years",,,enzyme contribution to clearance,0.78%
COc1ccc(CCC2CCCC(CCc3ccc(OC)cc3)N2C[C@@H](O)CO)cc1.Cl (stereo in doubt),,rabbit Purkinje fibres,"0.03 µM, cycle length 1 s",reference: baseline,APD90 change,10.4 ± 0.8%
CC(C)(C)c1cc(-n2nc3ccccc3n2)c(O)c(C(C)(C)C)c1,,human aged 11-16 years,"concentration not given, spray sunscreen, 95th percentile",,daily dermal exposure dose,15.1 ng/kg/day

# Repeated from above:
Structure (SMILES),test,test system,conditions,scale,endpoint,value
CCCCCOc1ccc(-c2ccc(-c3ccc(C(=O)N[C@H]4C[C@@H](O)[C@@H](OCC[N+](C)(C)C)NC(=O)[C@@H]5[C@@H](O)[C@@H](C)CN5C(=O)[C@H]([C@@H](C)O)NC(=O)[C@H]([C@H](O)[C@@H](O)c5ccc(O)cc5)NC(=O)[C@@H]5C[C@@H](O)CN5C(=O)[C@H]([C@@H](C)O)NC4=O)cc3)cc2)cc1,,"adult patients in ICU, plasma","intravenous, 400 mg loading dose, after first dose, median",,Cmin,1.9 µg/mL
CC(C)C[C@H](NC(=O)[C@H](CCCCN)NC(=O)OCC1c2ccccc2-c2ccccc21)C(=O)N[C@H](C(=O)N[C@@H](Cc1ccccc1)C(=O)N[C@@H](Cc1ccccc1)C(=O)N[C@@H](CCCCN)C(=O)NCC(=O)N[C@@H](Cc1ccccc1)C(=O)N[C@@H](C)C(=O)N[C@@H](Cc1c[nH]c2ccccc12)C(=O)N[C@@H](CC(N)=O)C(=O)N[C@H](C(=O)N[C@H]1CSSC[C@@H](C(=O)N[C@@H](Cc2c[nH]cn2)C(=O)N[C@@H](CCCNC(=N)N)C(=O)N[C@@H](CCCNC(=N)N)C(=O)N[C@@H](C)C(=O)N[C@@H](CC(N)=O)C(N)=O)NC(=O)[C@H](C(C)C)NC(=O)[C@H](CCCNC(=N)N)NC(=O)[C@H](C(C)C)NC(=O)CNC(=O)[C@H](CC(N)=O)NC(=O)[C@H](CCCNC(=N)N)NC(=O)[C@H](Cc2ccc(O)cc2)NC(=O)[C@H](C(C)C)NC1=O)C(C)C)C(C)C,,"ICR mice, blood","intraductal mammary, 5 mg/kg, day 5",,platelet distribution width,15.8 ± 0.25%
CC(C)Nc1ccnc(Nc2cccc(-c3cccnc3)c2)n1,measured: globulin,"mouse, blood","intraperitoneal, 3 mg/kg",,blood chemistry,1.8 g/dL
C=CCNc1c(O)cc2c(O)c1C[C@@H](C)C[C@H](OC)[C@H](O)[C@@H](C)/C=C(\C)[C@H](OC(N)=O)[C@@H](OC)/C=C\C=C(/C)C(=O)N2,,"unresectable or metastatic STS, GIST, other","intravenous, 90 mg/m^2",,patients with infusion site pain,33%
